Results from different studies.
Compare with care: the assays were run in different laboratories.

Substance | target or system | assay | system | conditions | measurement | value
SFLAHIQWMVMFTPL | human CD4 T cells | AIM | peptide | – | responding donors | 8%
CC(C)(C)NC(=O)[C@@H]1C[C@@H]2CCCC[C@@H]2CN1C[C@@H](O)[C@H](Cc1ccccc1)NC(=O)[C@H](CC(N)=O)NC(=O)c1ccc2ccccc2n1 | Replicase polyprotein 1ab, main protease (rep, Severe acute respiratory syndrome coronavirus 2, UniProt P0DTD1) | reporter gene (Gaussia luciferase), inhibitor | – | 20 µM | inhibition | 0.449%
CC[C@H](C)[C@H](NC(=O)[C@H](CC(C)C)NC(=O)[C@H](Cc1c[nH]c2ccccc12)NC(=O)[C@H](CCC(N)=O)NC(=O)[C@@H](NC(=O)[C@H](Cc1ccccc1)NC(=O)[C@H](C)NC(=O)[C@H](CCCCNC(=O)COCCOCCNC(=O)COCCOCCNC(=O)CC[C@H](NC(=O)CCCCCCCCCCCCCCCCCCC(=O)O)C(=O)O)NC(=O)[C@H](CCC(N)=O)NC(=O)[C@H](C)NC(=O)[C@@H](NC(=O)[C@H](CCCCN)NC(=O)[C@H](CC(=O)O)NC(=O)[C@H](CC(C)C)NC(=O)C(C)(C)NC(=O)[C@@H](NC(=O)[C@H](CO)NC(=O)[C@H](Cc1ccc(O)cc1)NC(=O)[C@H](CC(=O)O)NC(=O)[C@H](CO)NC(=O)[C@@H](NC(=O)[C@H](Cc1ccccc1)NC(=O)[C@@H](NC(=O)CNC(=O)[C@H](CCC(=O)O)NC(=O)C(C)(C)NC(=O)[C@@H](N)Cc1ccc(O)cc1)[C@@H](C)O)[C@@H](C)O)[C@@H](C)CC)[C@@H](C)CC)C(C)C)C(=O)N[C@@H](C)C(=O)NCC(=O)NCC(=O)N1CCC[C@H]1C(=O)N[C@@H](CO)C(=O)N[C@@H](CO)C(=O)NCC(=O)N[C@@H](C)C(=O)N1CCC[C@H]1C(=O)N1CCC[C@H]1C(=O)N1CCC[C@H]1C(=O)N[C@@H](CO)C(N)=O | – | – | healthy subjects, single ascending dose | 1.0 mg | adverse events (injection site pain) | 20%
AVMSLKEGQINDMIL | human CD4 T cells | AIM | peptide | – | responding donors | 33%
Nc1ncnc2c([C@@H]3N[C@H](CO)[C@@H](O)[C@H]3O)c[nH]c12 | Zaire ebolavirus | antibody staining | HeLa, Kikwit | 400 µM | antigen-positive cells | 0.12%

Excerpt of the above:
Substance | target or system | assay | system | conditions | measurement | value
CC(C)(C)NC(=O)[C@@H]1C[C@@H]2CCCC[C@@H]2CN1C[C@@H](O)[C@H](Cc1ccccc1)NC(=O)[C@H](CC(N)=O)NC(=O)c1ccc2ccccc2n1 | Replicase polyprotein 1ab, main protease (rep, Severe acute respiratory syndrome coronavirus 2, UniProt P0DTD1) | reporter gene (Gaussia luciferase), inhibitor | – | 20 µM | inhibition | 0.449%
